Results pooled from the literature.
Parts stem from different laboratories: compare values within a part only. “And” joins repeats or separate records; there may be more than shown. Converted amounts (≈) assume the structure as drawn.
Chain of UniProt P42336 (whole entry, unmodified, looked up): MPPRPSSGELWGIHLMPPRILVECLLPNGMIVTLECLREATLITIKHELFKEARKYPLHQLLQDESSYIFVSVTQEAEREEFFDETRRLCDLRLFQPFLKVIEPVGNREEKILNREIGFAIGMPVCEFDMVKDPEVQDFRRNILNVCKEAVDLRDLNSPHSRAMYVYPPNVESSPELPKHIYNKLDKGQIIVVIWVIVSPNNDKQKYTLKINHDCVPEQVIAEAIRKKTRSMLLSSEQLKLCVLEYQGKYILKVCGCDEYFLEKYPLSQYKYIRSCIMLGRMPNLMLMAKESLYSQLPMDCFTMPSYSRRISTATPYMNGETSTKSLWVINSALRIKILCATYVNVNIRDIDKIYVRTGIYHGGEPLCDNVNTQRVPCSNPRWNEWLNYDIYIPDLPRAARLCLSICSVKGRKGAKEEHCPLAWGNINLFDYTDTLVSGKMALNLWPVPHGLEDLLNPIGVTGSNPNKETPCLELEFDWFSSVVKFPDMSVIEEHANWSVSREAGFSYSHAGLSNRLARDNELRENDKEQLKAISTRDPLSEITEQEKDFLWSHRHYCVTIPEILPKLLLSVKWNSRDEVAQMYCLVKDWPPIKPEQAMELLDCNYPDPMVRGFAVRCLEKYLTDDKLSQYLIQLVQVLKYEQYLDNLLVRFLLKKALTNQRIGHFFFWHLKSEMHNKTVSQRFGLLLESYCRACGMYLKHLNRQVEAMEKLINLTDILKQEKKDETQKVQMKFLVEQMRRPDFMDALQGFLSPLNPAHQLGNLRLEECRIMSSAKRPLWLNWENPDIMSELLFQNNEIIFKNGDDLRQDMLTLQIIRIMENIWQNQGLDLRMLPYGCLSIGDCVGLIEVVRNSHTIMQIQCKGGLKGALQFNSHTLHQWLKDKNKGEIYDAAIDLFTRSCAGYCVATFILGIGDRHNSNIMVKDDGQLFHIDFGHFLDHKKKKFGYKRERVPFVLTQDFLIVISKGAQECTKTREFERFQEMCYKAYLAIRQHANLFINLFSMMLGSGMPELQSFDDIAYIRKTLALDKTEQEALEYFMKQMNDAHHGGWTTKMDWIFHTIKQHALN
Chain of UniProt O00329 (whole entry, looked up): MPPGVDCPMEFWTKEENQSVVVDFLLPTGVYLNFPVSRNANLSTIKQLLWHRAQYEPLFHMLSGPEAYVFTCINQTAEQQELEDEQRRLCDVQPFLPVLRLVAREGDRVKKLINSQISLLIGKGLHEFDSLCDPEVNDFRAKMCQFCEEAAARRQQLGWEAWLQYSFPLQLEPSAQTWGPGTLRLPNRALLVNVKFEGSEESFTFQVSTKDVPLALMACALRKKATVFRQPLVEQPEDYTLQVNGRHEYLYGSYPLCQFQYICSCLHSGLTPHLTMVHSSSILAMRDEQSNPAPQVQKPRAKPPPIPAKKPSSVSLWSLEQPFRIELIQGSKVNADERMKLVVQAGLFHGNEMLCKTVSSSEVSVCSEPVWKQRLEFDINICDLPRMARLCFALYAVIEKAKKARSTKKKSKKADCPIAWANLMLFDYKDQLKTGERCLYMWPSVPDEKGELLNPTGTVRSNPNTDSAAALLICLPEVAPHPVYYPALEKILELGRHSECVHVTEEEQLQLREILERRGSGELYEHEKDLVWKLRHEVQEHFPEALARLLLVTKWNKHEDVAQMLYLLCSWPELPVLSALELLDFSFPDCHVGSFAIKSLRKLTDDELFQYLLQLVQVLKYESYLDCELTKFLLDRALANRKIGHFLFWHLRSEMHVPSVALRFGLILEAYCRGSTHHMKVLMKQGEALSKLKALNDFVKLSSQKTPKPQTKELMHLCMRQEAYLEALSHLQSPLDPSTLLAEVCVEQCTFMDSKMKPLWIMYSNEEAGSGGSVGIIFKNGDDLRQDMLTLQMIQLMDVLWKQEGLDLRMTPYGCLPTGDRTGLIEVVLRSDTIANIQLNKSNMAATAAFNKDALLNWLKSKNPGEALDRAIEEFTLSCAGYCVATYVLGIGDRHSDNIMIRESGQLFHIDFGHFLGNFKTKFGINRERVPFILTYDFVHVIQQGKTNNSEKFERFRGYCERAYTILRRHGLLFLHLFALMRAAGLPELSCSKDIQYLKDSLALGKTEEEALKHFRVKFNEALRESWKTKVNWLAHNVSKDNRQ
Chain of UniProt Q9P286 (whole entry, looked up): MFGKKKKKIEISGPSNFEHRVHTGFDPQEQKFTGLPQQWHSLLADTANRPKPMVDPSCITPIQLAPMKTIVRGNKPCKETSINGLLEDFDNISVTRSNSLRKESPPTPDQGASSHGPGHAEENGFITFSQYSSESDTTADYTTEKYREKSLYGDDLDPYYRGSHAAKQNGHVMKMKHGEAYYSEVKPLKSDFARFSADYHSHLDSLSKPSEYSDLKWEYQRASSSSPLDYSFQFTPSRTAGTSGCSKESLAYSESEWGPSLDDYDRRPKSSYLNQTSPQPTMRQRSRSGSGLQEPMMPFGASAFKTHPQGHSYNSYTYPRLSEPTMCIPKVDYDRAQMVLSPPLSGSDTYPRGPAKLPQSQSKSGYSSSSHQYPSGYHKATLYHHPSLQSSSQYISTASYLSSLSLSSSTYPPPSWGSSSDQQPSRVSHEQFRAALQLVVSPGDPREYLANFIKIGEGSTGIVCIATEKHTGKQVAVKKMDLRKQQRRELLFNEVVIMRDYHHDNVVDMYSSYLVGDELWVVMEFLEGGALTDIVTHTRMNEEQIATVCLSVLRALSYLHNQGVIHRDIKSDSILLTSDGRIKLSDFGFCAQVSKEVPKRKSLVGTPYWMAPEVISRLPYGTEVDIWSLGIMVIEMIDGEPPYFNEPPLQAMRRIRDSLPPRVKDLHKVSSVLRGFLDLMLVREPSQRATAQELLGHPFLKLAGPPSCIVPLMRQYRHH
Chain of UniProt Q05655 (whole entry, looked up): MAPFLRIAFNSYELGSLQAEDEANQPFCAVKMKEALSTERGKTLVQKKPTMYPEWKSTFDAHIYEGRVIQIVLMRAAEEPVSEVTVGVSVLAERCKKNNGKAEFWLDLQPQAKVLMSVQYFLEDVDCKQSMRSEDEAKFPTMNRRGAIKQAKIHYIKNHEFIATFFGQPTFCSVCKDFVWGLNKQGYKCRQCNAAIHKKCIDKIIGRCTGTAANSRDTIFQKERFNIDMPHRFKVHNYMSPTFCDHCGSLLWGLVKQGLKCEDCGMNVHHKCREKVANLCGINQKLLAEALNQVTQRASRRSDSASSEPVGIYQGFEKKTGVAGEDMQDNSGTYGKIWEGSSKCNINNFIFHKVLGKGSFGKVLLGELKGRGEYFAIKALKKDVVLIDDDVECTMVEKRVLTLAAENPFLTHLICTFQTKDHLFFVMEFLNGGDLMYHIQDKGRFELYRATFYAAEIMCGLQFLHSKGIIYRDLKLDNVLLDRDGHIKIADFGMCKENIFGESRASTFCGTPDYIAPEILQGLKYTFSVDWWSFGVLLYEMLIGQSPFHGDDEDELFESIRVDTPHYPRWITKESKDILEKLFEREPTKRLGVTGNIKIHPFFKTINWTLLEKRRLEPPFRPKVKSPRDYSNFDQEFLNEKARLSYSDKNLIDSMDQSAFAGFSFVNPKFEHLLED
Chain of UniProt P0C264 (whole entry, looked up): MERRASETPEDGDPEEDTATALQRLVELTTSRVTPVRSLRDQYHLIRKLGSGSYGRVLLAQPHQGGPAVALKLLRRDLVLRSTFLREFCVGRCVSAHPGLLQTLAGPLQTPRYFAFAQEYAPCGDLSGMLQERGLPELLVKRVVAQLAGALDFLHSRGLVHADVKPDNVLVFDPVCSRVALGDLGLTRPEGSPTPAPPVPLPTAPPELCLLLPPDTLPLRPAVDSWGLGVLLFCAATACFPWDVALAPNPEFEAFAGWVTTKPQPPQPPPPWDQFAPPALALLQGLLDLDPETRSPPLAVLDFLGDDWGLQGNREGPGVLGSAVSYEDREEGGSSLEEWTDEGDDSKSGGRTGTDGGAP
Chain of UniProt Q9UPE1 (whole entry, looked up): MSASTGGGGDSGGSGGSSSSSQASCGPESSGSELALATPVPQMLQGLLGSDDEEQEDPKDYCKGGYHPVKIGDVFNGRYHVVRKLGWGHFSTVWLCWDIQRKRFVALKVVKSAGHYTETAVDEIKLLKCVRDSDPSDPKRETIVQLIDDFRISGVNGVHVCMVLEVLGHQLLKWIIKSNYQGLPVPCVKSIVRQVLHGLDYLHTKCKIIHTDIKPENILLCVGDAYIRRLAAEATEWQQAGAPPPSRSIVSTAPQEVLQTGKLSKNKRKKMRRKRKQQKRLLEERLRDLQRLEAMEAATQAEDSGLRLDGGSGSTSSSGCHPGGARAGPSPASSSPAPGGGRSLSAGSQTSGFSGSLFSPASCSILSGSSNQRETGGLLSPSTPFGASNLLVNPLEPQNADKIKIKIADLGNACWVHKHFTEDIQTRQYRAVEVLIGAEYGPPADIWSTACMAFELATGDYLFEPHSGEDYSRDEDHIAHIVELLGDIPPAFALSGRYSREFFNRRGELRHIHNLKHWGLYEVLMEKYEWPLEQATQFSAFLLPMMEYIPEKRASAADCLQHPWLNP

Study 1 — organism: Staphylococcus aureus; strain: USA300
Compound: CCCCC[C@@H](O)CC(=O)N[C@@H]1C(=O)N[C@H](CCCNC(=N)N)C(=O)N[C@@H](CO)C(=O)NCC(=O)N(C)[C@H](Cc2ccccc2)C(=O)N[C@@H](CC(C)C)C(=O)N[C@H](CCCNC(=N)N)C(=O)N[C@@H](CO)C(=O)N[C@H]([C@H](C)O)C(=O)N[C@H](Cc2c[nH]c3ccccc23)C(=O)N[C@@H]([C@@H](C)CC)C(=O)NCC(=O)O[C@@H]1C
For with: menaquinone 16 µg/mL: MIC read over 64 µg/mL.
For with: menaquinone 4 µg/mL: MIC read 32 µg/mL (≈ 21.1 µM).
For with: menaquinone 0.25 µg/mL: MIC read 16 µg/mL (≈ 10.5 µM).
with: menaquinone 0.0625 µg/mL — MIC: 8 µg/mL (≈ 5.27 µM).
with: menaquinone 32 µg/mL — MIC: over 64 µg/mL.

Study 2 — observed: cell-free assay; method: competition with immobilised ligand; tested at: 1 µM
SMILES: Cn1cncc1[C@](O)(COc1ccc(C#N)cc1-c1ccc(OC(F)(F)F)cc1)c1ccc(C#N)cc1
The remaining binding was 90% (MAPK3 (Homo sapiens, UniProt P27361)).
It gave 100% for remaining binding (SBK3 (Homo sapiens, UniProt P0C264)).
The remaining binding was 79% (PIK3CD (Homo sapiens, UniProt O00329)).
The remaining binding was 94% (PAK5 (Homo sapiens, UniProt Q9P286)).
It gave 100% for remaining binding (MAP3K7 (Homo sapiens, UniProt O43318)).
For CIT (Homo sapiens, UniProt O14578): remaining binding read 77%.
It gave 79% for remaining binding (EGFR (Homo sapiens, UniProt P00533, G719S)).
It gave 100% for remaining binding (TESK1 (Homo sapiens, UniProt Q15569)).
PRKCD (Homo sapiens, UniProt Q05655) — remaining binding: 66%.
It gave 100% for remaining binding (ACVR2B (Homo sapiens, UniProt Q13705)).
It gave 100% for remaining binding (PIK3CA (Homo sapiens, UniProt P42336, E545A)).
SRPK3 (Homo sapiens, UniProt Q9UPE1) — remaining binding: 53%.

Study 3 — organism: Cryptosporidium parvum; species: neonatal calves; dose: dose not given; reading: direction not given
Compound: CNC(=O)c1ccc(-c2cnn3ccc(C(=O)N(C)c4ccc(Cl)c(C(=O)OC)c4)cc23)cc1
day 6 post-treatment — “fecal consistency score”: 2 and 1.
For day 3 post-treatment: “fecal consistency score” read 3 and 1 and 2.
The “fecal consistency score” was 1 and 2 (day 8 post-treatment).

Study 4 — observed: RNA clamping; method: fluorescence polarization; tested at: concentration not given; notes: mean of two replicates; with: FAM-labelled poly r(AG)8 RNA
Target: Eukaryotic initiation factor 4A-III (Homo sapiens, UniProt P38919)
Chain of UniProt P38919 (whole entry, looked up): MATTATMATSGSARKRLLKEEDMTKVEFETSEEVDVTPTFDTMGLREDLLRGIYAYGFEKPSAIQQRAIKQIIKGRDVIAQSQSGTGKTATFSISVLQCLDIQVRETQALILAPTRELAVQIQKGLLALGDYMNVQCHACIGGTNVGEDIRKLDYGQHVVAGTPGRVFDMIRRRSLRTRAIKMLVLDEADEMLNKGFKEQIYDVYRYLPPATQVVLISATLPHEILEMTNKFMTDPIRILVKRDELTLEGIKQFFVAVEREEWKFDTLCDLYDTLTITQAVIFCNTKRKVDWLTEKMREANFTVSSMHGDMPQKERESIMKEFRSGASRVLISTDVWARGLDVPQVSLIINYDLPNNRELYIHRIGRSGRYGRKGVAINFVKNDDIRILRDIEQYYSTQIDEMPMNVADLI
`COCC1=N[C@@]2(O)[C@H](C(=O)N(C)OC)[C@@H](c3ccccc3)[C@]3(c4ccc(OC)cc4)Oc4cc(OC)cc(OC)c4[C@]23N1` — result for “fluorescence polarization change”: 28.2 mP.
`COC(=O)[C@@H]1[C@@H](O)[C@@]2(O)c3c(OC)cc(OC)cc3O[C@@]2(c2ccc(OC)cc2)[C@H]1c1ccccc1`: “fluorescence polarization change” 6.8 mP.
Under “fluorescence polarization change”, `COc1ccc([C@@]23Oc4cc(OC)cc(OC)c4[C@]2(O)c2nc4n(c(=O)c2[C@H]3c2ccccc2)CCC4)cc1` is recorded as 46 mP and 38.9 mP.
`COc1ccc(-c2nc3c(c(=O)[nH]2)[C@H](c2ccccc2)[C@@]2(c4ccc(OC)cc4)Oc4cc(OC)cc(OC)c4[C@@]32O)cc1`: “fluorescence polarization change” 15.9 mP.
Under “fluorescence polarization change”, `COC(=O)[C@H]1[C@@H](c2ccccc2)[C@]2(c3ccc(OC)cc3)Oc3cc(OC)cc(OC)c3[C@@]1(O)C2=O` is recorded as 4.7 mP.
`COc1ccc([C@@]23Oc4cc(OC)cc(OC)c4[C@]2(O)c2nc(-c4ccccc4)[nH]c(=O)c2[C@@H]3c2ccccc2)cc1`: “fluorescence polarization change” 5.7 mP.
`COCCN[C@]12c3c(OC)cc(OC)cc3O[C@@]1(c1ccc(OC)cc1)[C@H](c1ccccc1)C[C@@H]2O` — result for “fluorescence polarization change”: 4.3 mP.

Study 5 — cell line: HaCaT; tested at: 100 µM; time: 18 h
The viability of `C[C@]12CC[C@H]3[C@@H](CCC4=CC(=O)CC[C@@]43C)[C@@H]1CC[C@@H]2O` is reported as 89.8%.
`N#Cc1nn(-c2c(Cl)cc(C(F)(F)F)cc2Cl)c(N)c1[S+]([O-])C(F)(F)F` (stereo not drawn) has a viability of 54.7%.
`COc1ccc(CN2CCNCC2)c(OC)c1OC` has a viability of 108%.

A few entries again (study 2):
It gave 79% for remaining binding (EGFR (Homo sapiens, UniProt P00533, G719S)).
It gave 100% for remaining binding (TESK1 (Homo sapiens, UniProt Q15569)).
PRKCD (Homo sapiens, UniProt Q05655) — remaining binding: 66%.
